Assay results pooled from the literature.
Parts stem from different laboratories: compare values within a part only. Changes are numbered by the printed parent chain.
Chain of UniProt P28335 (whole entry, looked up): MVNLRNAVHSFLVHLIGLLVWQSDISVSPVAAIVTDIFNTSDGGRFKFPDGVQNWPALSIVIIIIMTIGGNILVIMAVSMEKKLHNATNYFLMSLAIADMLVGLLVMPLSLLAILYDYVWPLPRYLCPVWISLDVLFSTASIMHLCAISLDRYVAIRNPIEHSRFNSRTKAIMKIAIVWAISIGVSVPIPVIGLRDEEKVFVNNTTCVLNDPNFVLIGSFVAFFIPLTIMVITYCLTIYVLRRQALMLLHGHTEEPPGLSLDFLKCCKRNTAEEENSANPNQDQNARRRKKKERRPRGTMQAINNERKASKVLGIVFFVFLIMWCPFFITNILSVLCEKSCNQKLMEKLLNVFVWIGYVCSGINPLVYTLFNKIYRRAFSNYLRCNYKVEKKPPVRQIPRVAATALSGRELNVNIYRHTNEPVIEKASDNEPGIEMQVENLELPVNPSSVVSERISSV
Chain of UniProt P28223 (whole entry, looked up): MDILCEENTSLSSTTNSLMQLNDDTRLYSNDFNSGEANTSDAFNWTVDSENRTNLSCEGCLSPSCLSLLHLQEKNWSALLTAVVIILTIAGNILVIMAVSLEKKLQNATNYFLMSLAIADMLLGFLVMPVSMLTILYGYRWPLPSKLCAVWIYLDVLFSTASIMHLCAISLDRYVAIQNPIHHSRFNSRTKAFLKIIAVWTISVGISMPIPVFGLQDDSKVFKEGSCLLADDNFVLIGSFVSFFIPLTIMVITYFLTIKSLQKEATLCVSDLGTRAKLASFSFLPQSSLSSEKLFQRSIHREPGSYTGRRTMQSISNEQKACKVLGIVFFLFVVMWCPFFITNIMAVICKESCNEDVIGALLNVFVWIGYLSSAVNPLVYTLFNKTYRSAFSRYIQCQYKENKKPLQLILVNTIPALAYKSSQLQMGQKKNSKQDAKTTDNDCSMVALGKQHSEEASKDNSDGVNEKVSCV

Study 1 — target: CCNA1, cyclin fold, Cln2 fusion (human); method: yeast growth competition, sequencing; sample: yeast; notes: strong parent motif; reference: not given; reading: higher = stronger binding; starting sequence: viral docking peptide; TSVRRALFTGGSD
`S2L` — result for “normalised enrichment score”: 0.914.
`V3P` — result for “normalised enrichment score”: 0.134.
For `L7C`, “normalised enrichment score” read 0.29.
For `L7F`, “normalised enrichment score” read -0.157.
Under “normalised enrichment score”, `R4T` is recorded as 0.224.
For `T9Y`, “normalised enrichment score” read 1.19.
`A6N`: “normalised enrichment score” 0.862.
Under “normalised enrichment score”, `L7I` is recorded as -0.0498.
`V3S`: “normalised enrichment score” -0.142.
For `A6L`, “normalised enrichment score” read -0.0693.
`R4W`: “normalised enrichment score” -0.236.
For `R5P`, “normalised enrichment score” read -0.394.
`F8V` — result for “normalised enrichment score”: 0.427.
For `G11A`, “normalised enrichment score” read 0.8.
`F8K` — result for “normalised enrichment score”: -0.111.
For `T1A`, “normalised enrichment score” read 0.817.
`T9I`: “normalised enrichment score” 0.706.
Under “normalised enrichment score”, `R5E` is recorded as -0.255.
Under “normalised enrichment score”, `V3I` is recorded as 0.982.
For `R5H`, “normalised enrichment score” read 0.463.
For `T9E`, “normalised enrichment score” read 1.17.
`R5V` — result for “normalised enrichment score”: 0.277.
`T9A` — result for “normalised enrichment score”: 0.767.
For `V3T`, “normalised enrichment score” read 0.782.
For `S12Q`, “normalised enrichment score” read 1.36.

Study 2 — method: RNA Bind-n-Seq; form: RNA; sample: in vitro; tested at: 365 nM; reference: no-protein control; reading: higher = stronger binding
Target: RNA binding protein fox-1 homolog 2, RRM domain, GST-SBP tag (RBFOX2, Homo sapiens, UniProt O43251-10, residues 100-194)
Notes: natural RNA segment, single round, ends assumed
`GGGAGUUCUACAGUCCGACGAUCUAUAUUAAAAAAAAAGUUUUGUAUGUUUUUAUUACUUUAAUUAUUGUUAUAAAAAGCCUGCCAUUUUUAAUAUGUGGUUUGGGGAAUUUUGUUUGUUUUUCCUGUUUGGGUGGAAUUCUCGGGUGCCAA` — result for “RBNS enrichment (R)”: 6.35.
`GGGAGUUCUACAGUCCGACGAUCUCCCUUCCCGGCACGUGGAUUUUUUUUUUCAGUUUGUUAGAAGCCAGUGUAUGUCUUAAGCCUCUGCAAAAAAAAAAAAAAAUUGUUAGAUAAUGAUCCUAAAAGUGUUCUGGAAUUCUCGGGUGCCAA` — result for “RBNS enrichment (R)”: 1.94.
Under “RBNS enrichment (R)”, `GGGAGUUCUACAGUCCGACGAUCCCAUGUCAUCUUAACCUAAAGGGAAAUCUUAUUGCGUUAUCAUAAAAUUGAUGAUAUCUUAGGGUCAGAAUUGCCCUUUUUUUUUAUUUUGAAUGGGAAGUUCUCACUAAUGGAAUUCUCGGGUGCCAA` is recorded as 0.374.
For `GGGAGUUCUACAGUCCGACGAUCAUUCCCUGGCCUCUCUGGCUGCCACUUGGUUAUGUUGUGUGUGUGCGUGAGUGGUGUGCAGGCGCGGUUCCUUACGCCCCAUGUGUGCUGUGUGUGUCCAGGCACGGUUCUGGAAUUCUCGGGUGCCAA`, “RBNS enrichment (R)” read 1.79.
For `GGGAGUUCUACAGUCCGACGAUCGUGUGAUGUUGUGUUGCUCACACACGCCACCCAGCCACCCAUGCGCUGCCUGACCACAGCAACCCCCUCCCGUGCGGCAGACGUCACUCCUCGCAUCGUGAGCUGAGGCUUGGAAUUCUCGGGUGCCAA`, “RBNS enrichment (R)” read 2.34.
`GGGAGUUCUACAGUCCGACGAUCUUUUUUUUUCAAGCAGCAGUCCUAGGUAUUAACUGGAGCAUGUGUCAGAGUGUUGUUCCGUUAAUUUUGUAAAUACUGCUCGACUGUAACUCUCACAUGUGACAAAGUAUUGGAAUUCUCGGGUGCCAA`: “RBNS enrichment (R)” 2.04.
`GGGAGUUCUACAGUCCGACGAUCUUGCUUUUGGGCAGAAAAAAGUAGUGAAUAGCAGCGGAGAAAAGAGGAGGCACCCUUGAAUGACUGCAGACCAGCUGUGGGCACUCGCUGCUCCUCCAGGAAAGGGUGAGUGGAAUUCUCGGGUGCCAA`: “RBNS enrichment (R)” 1.03.
`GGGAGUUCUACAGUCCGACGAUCAAAGAAAAAGCUGAAGAAAUCAAGAACCAAUUGAAAUUCCUUUGGACACUUUUUUUUUUUUGUCUGUCGUUAAUUUUUAAAGACAUGUAAAGGAAGGUAACGAUUGCUGGUGGAAUUCUCGGGUGCCAA` — result for “RBNS enrichment (R)”: 0.625.

Study 3 — method: RNA Bind-n-Seq; form: RNA; sample: in vitro; tested at: 200 nM; notes: whole 134-nt RNA, ends assumed; with: 150 mM KCl; reference: input library; reading: higher = stronger binding
Target: Fragile X messenger ribonucleoprotein 1, C-terminal low-complexity region (Fmr1, Mus musculus, UniProt P35922)
`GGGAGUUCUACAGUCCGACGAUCUAACUUUAGAGGAGGAUCUGAUGGCUAUGGCAGUGGACGUGGAUUUGGGGAUGGCUAUAAUGGGUAUGGAGGAGGACCUGGAGGUGGCAAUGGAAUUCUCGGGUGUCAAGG` has a log2 enrichment of 0.285.
The log2 enrichment of `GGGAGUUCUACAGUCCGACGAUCUGGGAGGUGGAUUUUGUUUAUUUUUUUAGCUCAUUUCCAGGGGUGGGAAUUUUUUUUUAAUAUGUGUCAUGAAUCAAGUUGUUUUUGAAAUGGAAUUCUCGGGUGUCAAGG` is reported as 0.321.
`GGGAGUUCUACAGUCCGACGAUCAGUCCUGUGCUACACAUCGUAUGUACCGAAUCGGGGUGGGGAAAAAAAGGGGUGGGGAAAGUAUUAUGUUACGCCGUUCGGAUCUGCACUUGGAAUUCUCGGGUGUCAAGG` has a log2 enrichment of 0.816.
With `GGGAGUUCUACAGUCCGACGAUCACCAUGCAGGUGGGCAUCUUUGGGAAGUGGGGCAAGGGGGGGAUAGGGAGGGGGGUAACACUCUGGGAACAGGUGGUCCCAGGUCGUUUCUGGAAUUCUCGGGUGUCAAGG` the log2 enrichment was 0.721.
The log2 enrichment of `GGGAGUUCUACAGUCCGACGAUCCAAGUCCUGUGCUACACAUCGUAUGUACCGAAUCGGGUUUGGGAAAGGGUUUGGGAAAGUAUUAUGUUACGCCGUUCGGAUCUGCACUUCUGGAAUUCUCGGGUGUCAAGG` is reported as 0.885.
For `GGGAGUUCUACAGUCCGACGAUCUGUUGAAAUGGGACAGUUGGCAGCGGCUCUGAUGAGCCCGAGAAGAGGCCUGCCCUUGGGUGCGGAGUCUCCCUCCGCACGAUGCUCCCAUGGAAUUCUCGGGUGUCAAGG`, the log2 enrichment was -0.674.
`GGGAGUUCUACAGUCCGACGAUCUAGUCCAGCAUCAAGAUUCGCCGGCCUGGAUACAAAUCAGCGACUUACAGCUUUAGCUGAAGACAGACCGUUAUUUGAUGGACCUAGUAGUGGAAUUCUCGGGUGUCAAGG` has a log2 enrichment of -1.61.
The log2 enrichment of `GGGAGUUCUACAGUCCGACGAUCAAGUCCUGUGCUACACAUCGUAUGUACCGAAUCGGGUGGGAAAAAAAGGGUUUGGGAAAGUAUUAUGUUACGCCGUUCGGAUCUGCACUUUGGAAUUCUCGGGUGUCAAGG` is reported as 0.772.

Study 4 — method: protein-binding microarray; form: hairpin DNA; sample: in vitro; tested at: not given; reference: not given; reading: higher = stronger binding
Target: Homeobox protein Hox-C11, full length (HOXC11, Homo sapiens, UniProt O43248, residues 1-304)
Chain of UniProt O43248 (whole entry, looked up): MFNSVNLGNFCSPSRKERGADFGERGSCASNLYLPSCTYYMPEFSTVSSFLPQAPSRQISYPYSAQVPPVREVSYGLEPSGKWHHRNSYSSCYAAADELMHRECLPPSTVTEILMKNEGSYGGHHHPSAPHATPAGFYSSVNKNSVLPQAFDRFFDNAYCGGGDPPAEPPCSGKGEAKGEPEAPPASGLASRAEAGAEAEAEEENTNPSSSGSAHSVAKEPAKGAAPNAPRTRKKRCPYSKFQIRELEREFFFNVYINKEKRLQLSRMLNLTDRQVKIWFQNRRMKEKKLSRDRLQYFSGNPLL
Notes: whole hairpin DNA, median over replicate spots
The median fluorescence of `GAGGCCAGGTCGCTAAAGCCTCCTGGCTTTAGCGACCTGGCCTCACACTC (5mC at 13)` is reported as 9860 a.u.
With `GAGGCCAGGTCGTCGAAGCCTCCTGGCTTCGACGACCTGGCCTCACACTC` the median fluorescence was 10200 a.u.
`GAGGCCAGGTCGTAACAGCCTCCTGGCTGTTACGACCTGGCCTCACACTC` gave a median fluorescence of 11100 a.u.
`GAGGCCAGGTCCGAAAAGCCTCCTGGCTTTTCGGACCTGGCCTCACACTC (5mC at 12)` has a median fluorescence of 9110 a.u.
For `GAGGCCAGGTAGTTAAAGCCTCCTGGCTTTAACTACCTGGCCTCACACTC`, the median fluorescence was 9160 a.u.
For `GAGGCCAGGTCCTTAAAGCCTCCTGGCTTTAAGGACCTGGCCTCACACTC`, the median fluorescence was 8120 a.u.
`GAGGCCCGGTCGTTAAAGCCTCCTGGCTTTAACGACCGGGCCTCACACTC (5mC at 7 37)` has a median fluorescence of 10100 a.u.
For `GAGGCCAGGTCGTTGAAGCCTCCTGGCTTCAACGACCTGGCCTCACACTC (5mC at 30)`, the median fluorescence was 10300 a.u.

Single results of other studies — tested at: 10 µM
CC(C)(O)c1cncc(-c2nc3ccc(F)cc3n2C2CC2)c1 gave an inhibition of 100% (HTR2C (Homo sapiens, UniProt P28335); binding, radioligand binding).
CN(C)C(=O)Cn1cc(-c2nc([C@@](C)(c3ccc(-c4cnc(N)nc4)cc3)C3CC3)no2)cn1 has an inhibition of -11.9% (HTR2A (Homo sapiens, UniProt P28223); ligand displacement).

Repeated from above (study 2):
For `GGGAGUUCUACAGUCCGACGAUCAUUCCCUGGCCUCUCUGGCUGCCACUUGGUUAUGUUGUGUGUGUGCGUGAGUGGUGUGCAGGCGCGGUUCCUUACGCCCCAUGUGUGCUGUGUGUGUCCAGGCACGGUUCUGGAAUUCUCGGGUGCCAA`, “RBNS enrichment (R)” read 1.79.
`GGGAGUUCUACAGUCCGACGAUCUUUUUUUUUCAAGCAGCAGUCCUAGGUAUUAACUGGAGCAUGUGUCAGAGUGUUGUUCCGUUAAUUUUGUAAAUACUGCUCGACUGUAACUCUCACAUGUGACAAAGUAUUGGAAUUCUCGGGUGCCAA`: “RBNS enrichment (R)” 2.04.
`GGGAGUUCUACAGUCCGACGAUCAAAGAAAAAGCUGAAGAAAUCAAGAACCAAUUGAAAUUCCUUUGGACACUUUUUUUUUUUUGUCUGUCGUUAAUUUUUAAAGACAUGUAAAGGAAGGUAACGAUUGCUGGUGGAAUUCUCGGGUGCCAA` — result for “RBNS enrichment (R)”: 0.625.
`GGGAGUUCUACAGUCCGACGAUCUUGCUUUUGGGCAGAAAAAAGUAGUGAAUAGCAGCGGAGAAAAGAGGAGGCACCCUUGAAUGACUGCAGACCAGCUGUGGGCACUCGCUGCUCCUCCAGGAAAGGGUGAGUGGAAUUCUCGGGUGCCAA`: “RBNS enrichment (R)” 1.03.
Under “RBNS enrichment (R)”, `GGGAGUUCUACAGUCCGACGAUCCCAUGUCAUCUUAACCUAAAGGGAAAUCUUAUUGCGUUAUCAUAAAAUUGAUGAUAUCUUAGGGUCAGAAUUGCCCUUUUUUUUUAUUUUGAAUGGGAAGUUCUCACUAAUGGAAUUCUCGGGUGCCAA` is recorded as 0.374.
`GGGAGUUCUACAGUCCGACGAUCUCCCUUCCCGGCACGUGGAUUUUUUUUUUCAGUUUGUUAGAAGCCAGUGUAUGUCUUAAGCCUCUGCAAAAAAAAAAAAAAAUUGUUAGAUAAUGAUCCUAAAAGUGUUCUGGAAUUCUCGGGUGCCAA` — result for “RBNS enrichment (R)”: 1.94.
`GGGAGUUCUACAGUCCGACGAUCUAUAUUAAAAAAAAAGUUUUGUAUGUUUUUAUUACUUUAAUUAUUGUUAUAAAAAGCCUGCCAUUUUUAAUAUGUGGUUUGGGGAAUUUUGUUUGUUUUUCCUGUUUGGGUGGAAUUCUCGGGUGCCAA` — result for “RBNS enrichment (R)”: 6.35.
For `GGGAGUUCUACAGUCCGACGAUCGUGUGAUGUUGUGUUGCUCACACACGCCACCCAGCCACCCAUGCGCUGCCUGACCACAGCAACCCCCUCCCGUGCGGCAGACGUCACUCCUCGCAUCGUGAGCUGAGGCUUGGAAUUCUCGGGUGCCAA`, “RBNS enrichment (R)” read 2.34.
